Published values of several laboratories.
Compare with care: the assays were run in different laboratories. Numbers after ± are the reported error.
ESR1: Estrogen receptor (ESR1, Homo sapiens, UniProt P03372)
ADORA1: Adenosine receptor A1 (ADORA1, Homo sapiens, UniProt P30542)
SLC10A2: Ileal sodium/bile acid cotransporter (SLC10A2, Homo sapiens, UniProt Q12908)
T1: DNA aptamer four adenosine sites; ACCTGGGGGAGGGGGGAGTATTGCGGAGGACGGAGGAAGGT
T2: DNA aptamer; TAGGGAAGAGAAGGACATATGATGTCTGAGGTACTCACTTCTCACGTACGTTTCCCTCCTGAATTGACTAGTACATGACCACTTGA

`O=C1c2ccc(O)cc2OC(c2ccc(O)cc2)C1C1C(=O)c2ccc(O)cc2OC1c1ccc(O)cc1` (centres unmarked) gave a Vmax of 165 ± 4.7 µmol/min/mg (PRXC1A (Armoracia rusticana, UniProt P00433); oxidation, substrate).
The activation of `N=C(N)NCCC[C@H](NC(=O)[C@H](CC(=O)O)NC(=O)[C@@H]1CSCCC(=O)NCC(=O)N[C@@H](Cc2c[nH]cn2)C(=O)N[C@H](Cc2ccccc2)C(=O)N[C@@H](CCCNC(=N)N)C(=O)N[C@@H](Cc2c[nH]c3ccccc23)C(=O)N1)C(=O)N[C@@H](Cc1ccccc1)C(=O)NCC(N)=O` is reported as 52% (MC3R (Homo sapiens, UniProt P41968); cAMP accumulation, agonist; HEK293 expressing MC3R; 10 µM; relative to: MT-II).
`CC(C)CCSc1nc2c([nH]1)c(=S)n(C)c(=O)n2C` has a reporter activity of 65% (ESR1; reporter gene, ERE luciferase; T47D-KBluc; 10 µM, 24 h, together with: estradiol 5 nM; relative to: maximal luciferase activity).
The Kd of `Nc1ncnc2c1ncn2[C@@H]1O[C@H](CO)[C@@H](O)[C@H]1O` is reported as 9.8 µM (T1, DNA aptamer four adenosine sites; ITC; pH 7.6, 25 °C, Na+ 100 mM, one-site model).
With `CC(=C(c1ccc(Cl)cc1)c1ccc(OCCN2CCCCC2)cc1)c1ccc(Cl)cc1` the fold activation was 1.09 ± 0.2 fold (ESR1; reporter gene, agonist, yeast estrogen screen; 1 µM; relative to: DMSO).
`CCNC(=O)[C@H]1O[C@@H](n2cnc3c(NCCCCCCCCCCCNS(=O)(=O)c4cccc5c(N(C)C)cccc45)ncnc32)[C@H](O)[C@@H]1O` has a maximal inhibition of 44.8 ± 2.3% (ADORA1; radioligand binding, whole-cell binding; CHO-A1; 2 h, together with: [3H]DPCPX; relative to: specific binding, 10 µM XAC).
With `Cc1ncc(C[n+]2cccc(CCO)c2C)c(N)n1` the ΔH was -4.3 ± 3.11 kcal/mol (nicotinamide riboside transporter PnuT (Shewanella woodyi, UniProt B1KPL9); isothermal titration calorimetry; 25 °C).
`CC(=O)[C@H]1CC[C@H]2[C@@H]3CCC4=CC(=NOCC(=O)O)CC[C@]4(C)[C@H]3CC[C@]12C` gave a Kd of 0.00155 µM (T2, DNA aptamer; APAA; NaCl 100 mM).
For `CC(C)C[C@H](NC(=O)[C@H](CC(C)C)NC(=O)[C@@H](NC(=O)[C@H](Cc1ccccc1)NC(=O)[C@@H](Cc1c[nH]c2ccccc12)NC(=O)[C@@H](N)CCCCN)[C@@H](c1ccccc1)c1c[nH]c2ccccc12)C(N)=O`, “fold decrease in inverse agonism” read greater than 10 fold (GHSR (Homo sapiens, UniProt Q92847); inverse agonist, IP-One HTRF; relative to: KwFwLL-NH2).
The Kt of `C[C@H](CCC(=O)N[C@@H](CCC(=O)Nc1cncc(F)c1)C(=O)O)[C@H]1CC[C@H]2[C@@H]3[C@H](O)C[C@@H]4C[C@H](O)CC[C@]4(C)[C@H]3CC[C@]12C` is reported as 4.3 µM (SLC10A2; transport, substrate, LC-MS/MS; ASBT-MDCK cells).
For `CCCn1c(=O)c2[nH]c(-c3ccc(OCC(=O)NCCNS(=O)(=O)c4cccc5c(N(C)C)cccc45)cc3)nc2n(CCC)c1=O`, “inverse agonist response” read 1.47 ± 0.08 fold increase (ADORA1; CRE reporter gene, inverse agonist; CHO-A1; concentration not given, together with: forskolin; relative to: forskolin alone).
`CN(C)CCCOc1ccc2cc(CN)ccc2c1` has a kcat of 0.302 ± 0.006 s⁻¹ (Primary amine oxidase, liver isozyme (Bos taurus, UniProt Q29437); substrate, fluorescence; pH 7.2, 30 °C).
`CC(=O)N[C@H]1[C@@H](OP(=O)(O)OP(=O)(O)OC[C@H]2O[C@@H](n3ccc(=O)[nH]c3=O)[C@H](O)[C@@H]2O)O[C@H](CO)[C@@H](O)[C@@H]1O` has a koff of 22 s⁻¹ (ABO (Homo sapiens, UniProt P16442); binding, NMR).
For `CC1=C(/C=C/C=C\C=C\C(C)=C\C=O)C(C)(C)CCC1`, “cell surface expression” read roughly 2 fold (Rhodopsin (RHO, Homo sapiens, UniProt P08100); pharmacological chaperone, immunostaining, nonpermeabilized cells; 661W; 2.5 µM, 16 h; relative to: untreated cells).
The enrichment factor of `NC(=O)C1CCNC(=O)C(CCCNC(=O)c2cnccn2)NC(=O)C(CC2CCCCC2)NC(=O)C(CC2CC2)NC(=O)C=CC(=O)N1` (centres unmarked) is reported as 2 (MAPKAPK2 (Homo sapiens, UniProt P49137); DNA-templated library selection; one selection round).
For `C=C1C(=O)O[C@@H]2[C@H]3C(CO)=CC(=O)C3=C(C)C[C@H](O)[C@@H]12`, “Trp emission peak wavelength” read 290 nm (MAL12 (Saccharomyces cerevisiae S288c, UniProt P53341); synchronous fluorescence, Δλ 60 nm; up to 65.22 µM, 298 K, red-shifted from 288 nm).
For `CN1CCN(CC(=O)N2N=C3/C(=C/c4ccccc4)CCCC3C2c2ccccc2)CC1` (mixture of isomers), “initial rate increase” read 25% (ALOX15 (Homo sapiens, UniProt P16050); enzyme activity, activator; 10 µM, together with: docosahexaenoic acid 100 µM; relative to: no activator).
`COc1cc(-c2cnc3nc2NCCCNS(=O)(=O)c2cccc(c2)N3)ccc1F`: “thermal shift ΔTm” 6.3 K (FLT1 (Homo sapiens, UniProt P17948); differential scanning fluorimetry; 10 µM; higher = stronger binding).
`C=CCC(=N)NCCC[C@H](N)C(=O)O` — result for “NMDA-evoked cGMP accumulation”: “no effect” (Nitric oxide synthase 1 (Mus musculus, UniProt Q9Z0J4); adult mouse hippocampal slices; 0.1 µM, together with: BAY 60-7550 1 µM).
`O=C1CCC(N2C(=O)c3ccc(N4CCC(C(=O)N5CCC(CCN6CCC(CNC(=O)c7cccc(-c8noc(C(F)(F)F)n8)c7)(c7nc(-c8ccccc8)cs7)CC6)CC5)CC4)cc3C2=O)C(=O)N1` (centres unmarked) has a maximum degradation of greater than 85% (HDAC7 (Homo sapiens, UniProt Q8WUI4); degrader, Western blot; HL-60; 1 µM, 12 h).
`N[C@@H](Cc1ccc(O)c(I)c1)C(=O)O` — result for “Kd ratio, M41F over wild type”: 10 fold (Iodotyrosine deiodinase (IYD, Thermotoga neapolitana, UniProt B9K712, M41F); binding, FMN fluorescence quenching; 25 °C).
With `Nc1ncnc2c1ncn2[C@@H]1O[C@H](CO)[C@@H](O[C@H]2O[C@H](CO)[C@@H](OP(=O)(O)O)[C@H](OP(=O)(O)O)[C@H]2O)[C@H]1O` the Hill coefficient was 1.8 ± 0.7 (Inositol 1,4,5-trisphosphate-gated calcium channel ITPR1, IP3-binding core (Itpr1, Rattus norvegicus, UniProt P29994, R504Q); binding, 3H-IP3 competition; IP3-binding core IBC^R504Q).
`CCC(=C(c1ccc(O)cc1)c1ccc(OCCN(C)CCOCCOCCOCCOCCOCCOCCOCCOCCOCCN(C)CCOc2ccc(C(=C(CC)c3ccccc3)c3ccc(O)cc3)cc2)cc1)c1ccccc1` (mixture of isomers): “relative binding affinity” 7.92 ± 1.5% (ESR2 (Homo sapiens, UniProt Q92731); radioligand competition binding; concentration not given, Z-Z/Z isomer form, together with: [3H]estradiol tracer; relative to: estradiol).
`CC(C)NC(=O)NC1CC=C(c2cc3c(Nc4cc5ncsc5cc4F)ncnc3s2)CC1` (racemic) has a remaining activity of 107 ± 3% (RIPK1 (Homo sapiens, UniProt Q13546); enzyme activity; 1 µM; relative to: untreated).
With `O=C(N1CCCC1)n1cc(-c2ccc(-c3ccccc3)cc2)nn1` the activity reduction was roughly 40% (Abhd6 (Mus musculus, UniProt Q8R2Y0); competitive ABPP-SILAC; mouse T cells; 3 nM, 4 h).
With `CCCCCC(C)NCC(=O)O` (centres unmarked) the β-sheet content was 5.2% (Albumin (ALB, Homo sapiens, UniProt P02768); circular dichroism; 0.6 mM).
For `C[C@@H]1O[C@@H](O[C@H]2C(=O)c3c(O)cc(O)cc3O[C@@H]2c2ccc(O)cc2)[C@H](O)[C@H](O)[C@H]1O`, “Ki (enzyme-substrate complex)” read 8.33 µM (PTPN1 (Homo sapiens, UniProt P18031); Lineweaver-Burk and Dixon plots).
For `CSCC[C@H](NC(=O)[C@H](Cc1c[nH]c2ccccc12)NC(=O)[C@@H](NC(=O)[C@@H](NC(=O)[C@@H](NC(=O)[C@H](C)NC(=O)[C@@H](NC(=O)[C@H](C)NC(=O)[C@H](CCCCN)NC(=O)[C@H](CCCCN)NC(=O)[C@@H](NC(=O)[C@H](CC(N)=O)NC(=O)[C@H](CCC(=O)O)NC(=O)[C@@H](N)CCSC)C(C)C)[C@@H](C)O)[C@@H](C)O)[C@@H](C)O)[C@@H](C)O)C(=O)N[C@H](C(=O)N1CCC[C@H]1C(=O)N[C@H](C(=O)N[C@@H](CCCNC(=N)N)C(=O)N[C@@H](CCC(N)=O)C(=O)O)[C@@H](C)O)C(C)C`, the ΔH° was -13.8 ± 1.1 kcal/mol (Recombining binding protein suppressor of hairless (Rbpj, Mus musculus, UniProt P31266); isothermal titration calorimetry; pH 6.5, 25 °C).
For `OC[C@H]1O[C@@H](n2cnc3c(Nc4cccc(Br)c4)ncnc32)[C@H](O)[C@@H]1O`, the residence time was 16 ± 0.6 min (ADORA3 (Homo sapiens, UniProt P0DMS8); kinetic radioligand binding; no GTP, together with: [3H]PSB-11).
Under activity, `Nc1c2ncn3c2nc[n+]1[C@@H]1O[C@H](COP(=O)(O)OP(=O)([O-])OCCOC3)[C@@H](O)[C@H]1O` is recorded as “inactive” (cADPR receptor, sea urchin; Ca2+ release; sea urchin egg homogenate; concentration not given).
`CC(CCC(=O)NC(CCC(=O)Nc1cccc(N)n1)C(=O)O)C1CCC2C3C(O)CC4CC(O)CCC4(C)C3CCC12C` (centres unmarked) has a normalized Jmax/Kt of 0.324 µM⁻¹ (SLC10A2; transport efficiency, substrate, LC-MS/MS; ASBT-MDCK).
With `CCCCOc1ccc(C(=O)OCCN2CC=CCC2)cc1` the dissociation half-time was 0.4 ± 0.1 h (CHRM1 (Homo sapiens, UniProt P11229); recovery of [3H]NMS binding after washing; membranes; 100 µM).

Excerpt of the above:
`COc1cc(-c2cnc3nc2NCCCNS(=O)(=O)c2cccc(c2)N3)ccc1F`: “thermal shift ΔTm” 6.3 K (FLT1 (Homo sapiens, UniProt P17948); differential scanning fluorimetry; 10 µM; higher = stronger binding).
`C=CCC(=N)NCCC[C@H](N)C(=O)O` — result for “NMDA-evoked cGMP accumulation”: “no effect” (Nitric oxide synthase 1 (Mus musculus, UniProt Q9Z0J4); adult mouse hippocampal slices; 0.1 µM, together with: BAY 60-7550 1 µM).
`O=C1CCC(N2C(=O)c3ccc(N4CCC(C(=O)N5CCC(CCN6CCC(CNC(=O)c7cccc(-c8noc(C(F)(F)F)n8)c7)(c7nc(-c8ccccc8)cs7)CC6)CC5)CC4)cc3C2=O)C(=O)N1` (centres unmarked) has a maximum degradation of greater than 85% (HDAC7 (Homo sapiens, UniProt Q8WUI4); degrader, Western blot; HL-60; 1 µM, 12 h).
